Measurements from different studies.
Each numbered part is a random draw from the data of one study; scales do not carry over between parts.
Sequence of UniProt P41595 (whole entry, looked up): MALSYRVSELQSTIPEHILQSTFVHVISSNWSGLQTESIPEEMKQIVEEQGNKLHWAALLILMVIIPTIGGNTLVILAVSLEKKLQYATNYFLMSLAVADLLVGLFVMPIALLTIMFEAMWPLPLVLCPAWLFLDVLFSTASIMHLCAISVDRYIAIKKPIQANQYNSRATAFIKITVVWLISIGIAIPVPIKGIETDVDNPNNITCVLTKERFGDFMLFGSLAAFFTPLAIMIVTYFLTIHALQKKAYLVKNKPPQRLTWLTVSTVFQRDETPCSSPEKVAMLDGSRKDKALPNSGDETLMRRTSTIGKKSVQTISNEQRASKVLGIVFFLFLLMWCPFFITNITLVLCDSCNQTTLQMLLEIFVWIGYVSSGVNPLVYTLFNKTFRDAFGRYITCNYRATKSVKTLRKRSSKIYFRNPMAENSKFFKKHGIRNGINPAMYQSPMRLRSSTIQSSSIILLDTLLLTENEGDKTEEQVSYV
Sequence of UniProt P46098 (whole entry, looked up): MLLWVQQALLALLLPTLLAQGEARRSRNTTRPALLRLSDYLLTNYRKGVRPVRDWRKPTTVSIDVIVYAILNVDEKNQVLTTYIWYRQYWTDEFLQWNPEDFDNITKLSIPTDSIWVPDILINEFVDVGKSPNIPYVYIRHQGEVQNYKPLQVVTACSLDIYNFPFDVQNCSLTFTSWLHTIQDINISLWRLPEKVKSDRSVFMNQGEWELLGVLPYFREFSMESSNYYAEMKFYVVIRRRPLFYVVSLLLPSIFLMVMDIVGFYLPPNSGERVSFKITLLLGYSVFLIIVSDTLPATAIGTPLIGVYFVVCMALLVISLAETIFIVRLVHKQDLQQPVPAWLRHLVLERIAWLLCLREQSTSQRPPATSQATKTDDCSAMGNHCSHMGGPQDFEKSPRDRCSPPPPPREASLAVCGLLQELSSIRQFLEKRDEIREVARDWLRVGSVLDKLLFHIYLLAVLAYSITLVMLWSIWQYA
Sequence of UniProt P14416 (whole entry, looked up): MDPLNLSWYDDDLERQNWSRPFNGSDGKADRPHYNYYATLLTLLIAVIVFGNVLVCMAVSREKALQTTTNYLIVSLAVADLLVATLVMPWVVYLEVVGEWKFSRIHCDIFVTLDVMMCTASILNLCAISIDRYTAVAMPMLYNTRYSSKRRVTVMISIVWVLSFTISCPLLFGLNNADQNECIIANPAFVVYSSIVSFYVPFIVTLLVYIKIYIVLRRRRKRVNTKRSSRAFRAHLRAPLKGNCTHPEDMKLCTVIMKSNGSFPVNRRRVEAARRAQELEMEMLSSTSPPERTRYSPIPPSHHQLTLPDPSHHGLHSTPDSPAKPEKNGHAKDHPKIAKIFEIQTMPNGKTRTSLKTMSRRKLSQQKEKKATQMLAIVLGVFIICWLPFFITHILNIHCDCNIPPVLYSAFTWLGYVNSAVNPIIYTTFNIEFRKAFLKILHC

Study 1
SMILES: Cc1nc(C2CCN(C(=O)c3ccc(OC(F)(F)F)cc3N)CC2)c2ncc(N3CCN(C)CC3)cc2n1
Read-out: binding
Method: radioligand binding
Tested at: 10 µM
target | inhibition [%]
HTR2B (Homo sapiens, UniProt P41595) | -1.28
DRD2 (Homo sapiens, UniProt P14416) | 2.97
HTR3A (Homo sapiens, UniProt P46098) | 6.25

Study 2
Organism: Sarcocystis neurona
Read-out: parasite growth
Tested at: 10 µM
Time: 96 h
Setting: first screen
Compound | inhibition [%]
CCCc1c(OCCCCc2nnn[nH]2)ccc(C(C)=O)c1O | -10.5
COc1ccccc1OCC(O)CN1CCN(CC(=O)Nc2c(C)cccc2C)CC1 (centres unmarked) | 11.2
CC1(C)S[C@@H]2[C@H](NC(=O)[C@H](N)c3ccccc3)C(=O)N2[C@H]1C(=O)O | -2.1
Cc1ccc(Cl)c(Nc2ccccc2C(=O)O)c1Cl | -4.4
CC(=O)NCCCCCCNC(C)=O | 0.9
C=CCc1ccc(O)c(-c2ccc(O)c(CC=C)c2)c1 | 6.4

Study 3
Host: mouse
Medium: microsomes or S9
Tested at: 2 µM
Time: 0.5 h
Structure (SMILES) | remaining compound [%]
CCn1cc(S(=O)(=O)N2CCC3(CCCCO3)CC2)cn1 | 20.9
O=C(NCc1ccccc1)c1ccc(CN(c2ccccc2)S(=O)(=O)c2ccccc2)cc1 | 26.6
CC(Nc1oc(/C=C/c2cccs2)nc1C#N)c1ccccc1 (centres unmarked) | 0.57
OCC1O[C@@H](Oc2cc(O)cc(C3c4c(/C=C/c5ccc(O)cc5)cc(O)cc4OC3c3ccc(O)cc3)c2)C(O)[C@H](O)[C@@H]1O (some centres unmarked) | > 99
Cc1c(O)ccc2c1oc1c(-c3cccnc3O)c3cnn(C(C)C)c3nc12 | 39.7

Study 4
SMILES: COc1cc(C(=O)N2CCC(N3CCN(C)CC3)CC2)ccc1Nc1ncc2c(n1)N(C)c1ccccc1C(=O)N2C
target | test | system | conditions | inhibition
MAPKAPK2 (human) | probe labelling, KiNativ ATP probe | human PBMC lysate | concentration not given, LYS1 labelled site | 7.1%
TLK1 and TLK2 human | KiNativ profiling | human PBMC | 1 µM, LYS2 site, together with: ADP acyl phosphate probe | -4%
AKT1 and AKT3 mouse | KiNativ profiling | mouse brain lysate | 0.1 µM, LYS1 site, together with: ADP acyl phosphate probe | -13.1%
RSKL1 domain 1 (mouse) | probe labelling, inhibitor, KiNativ ActivX ATP probe | mouse brain lysate | 0.1 µM, kinase domain peptide | -5.6%
ILK (mouse) | probe labelling, KiNativ ATP probe | mouse brain lysate | 1 µM, LYS1 labelled site | 4.7%
MARK1 (mouse) | probe labelling, KiNativ ATP probe | mouse brain lysate | 1 µM, LYS1 labelled site | 13.3%

A few entries again (study 3):
Structure (SMILES) | remaining compound [%]
OCC1O[C@@H](Oc2cc(O)cc(C3c4c(/C=C/c5ccc(O)cc5)cc(O)cc4OC3c3ccc(O)cc3)c2)C(O)[C@H](O)[C@@H]1O (some centres unmarked) | > 99
